Values quoted from earlier work that unrelated publications cite.
Lines come from different studies, so protocols differ. Numbers after ± are the reported error.
UniProt Q96Q40, sequence (whole entry, looked up): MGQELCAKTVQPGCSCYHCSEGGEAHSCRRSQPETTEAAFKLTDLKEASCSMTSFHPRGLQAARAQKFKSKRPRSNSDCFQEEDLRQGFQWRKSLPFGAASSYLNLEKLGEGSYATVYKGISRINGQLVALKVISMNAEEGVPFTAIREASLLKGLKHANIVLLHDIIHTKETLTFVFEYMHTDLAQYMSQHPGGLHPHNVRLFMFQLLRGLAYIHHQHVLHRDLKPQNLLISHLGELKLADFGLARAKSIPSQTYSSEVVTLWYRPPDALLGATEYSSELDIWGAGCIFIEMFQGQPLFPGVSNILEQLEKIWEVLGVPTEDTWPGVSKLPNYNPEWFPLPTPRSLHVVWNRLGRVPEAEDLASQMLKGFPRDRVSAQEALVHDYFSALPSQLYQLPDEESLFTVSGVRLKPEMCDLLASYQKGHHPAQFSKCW

CCCCC(CC)C(=O)O (stereo not shown) — EC10 (craniofacial deformation; zebrafish embryo; nominal concentration): 12 µM
COc1cc(NC(=O)CCN2CCC(OC(=O)Nc3ccccc3-c3ccccc3)CC2)c(Cl)cc1CNC[C@H](O)c1ccc(O)c2[nH]c(=O)ccc12 — lung deposited fraction (human; inhaled): 0.26
COc1cc2nccc(Oc3ccc(NC(=O)C4(C(=O)Nc5ccc(F)cc5)CC4)cc3)c2cc1OC — patients requiring dose hold (cancer patients, real-world): ≤ 83%
C=CCCC(=O)O — EC10 (pericardial and yolk oedema; zebrafish embryo; nominal concentration): 568 µM
CC(C)(O/N=C(\C(=O)N[C@@H]1C(=O)N2C(C(=O)[O-])=C(C[n+]3ccccc3)CS[C@H]12)c1csc(N)n1)C(=O)O — MIC (Escherichia coli; clinical isolate RKI-No_314/16): ≤ 2 µg/mL
Nc1cc(C(F)(F)F)c(-c2nc(N3CCOCC3)nc(N3CCOCC3)n2)cn1 — remaining activity (CDK15 (Homo sapiens, UniProt Q96Q40); enzyme activity; 10 µM; relative to: untreated): 100%
C[C@H](C(=O)NCc1ccccc1)N1C(=O)CCC1=O — TD50 (motor impairment; mouse; intraperitoneal): > 500 mg/kg
C[Si]1(C)O[Si](C)(C)O[Si](C)(C)O[Si](C)(C)O[Si](C)(C)O1 — log KOW (0.13 0.24 µg/L in water, 24.6 °C): 8.07
Cc1cc(-c2nccc3c2ccn3CC(=O)Nc2ccc(-c3cnccn3)cn2)ccn1 — Cmax (item: total drug; rat; dose not given, 1-month toxicology study): 27.9 µM
Cn1ncnc1[C@H]1c2n[nH]c(=O)c3cc(F)cc(c23)N[C@@H]1c1ccc(F)cc1 — Cmax (rat; 0.05 mg/kg once daily, day 28): 19.5 ng/mL
C=CC(=O)NC1CCN(c2ncc3ncnc(Nc4ccc(Oc5ccc6c(c5)ncn6C)c(C)c4)c3n2)CC1 — treatment discontinuation due to TRAEs (human patients; oral, 120 mg once daily): 3%
COC(=O)N[C@H](C(=O)N1CCC[C@H]1c1nc(-c2ccc3c(c2)O[C@@H](c2ccccc2)n2c-3cc3cc(-c4c[nH]c([C@@H]5CCCN5C(=O)[C@@H](NC(=O)OC)C(C)C)n4)ccc32)c[nH]1)C(C)C — fraction of dose recovered in bile (bile duct-cannulated rats; oral, time not given): 8%
N#Cc1ccc([C@H]2CCc3cncn32)c(F)c1 — renal clearance (human): 0.86 L/h
CS(=O)(=O)CCNCc1ccc(-c2ccc3ncnc(Nc4ccc(OCc5cccc(F)c5)c(Cl)c4)c3c2)o1 — steady-state Cmax (human, plasma; 1250 mg/day, 4 h): 2430 ng/mL
CC1(C)S[C@@H]2[C@H](NC(=O)[C@H](N)c3ccccc3)C(=O)N2[C@H]1C(=O)O — MIC (Enterobacter cloacae; clinical isolate RKI-No_460/16): > 16 µg/mL
CCOc1c([C@H](C)n2nc(C)c3c(N)ncnc32)cc(Cl)c(F)c1[C@@H]1CNC(=O)C1 — Cmax decrease (human; oral, 20 and 30 mg once daily, high-fat meal; relative to: fasted): 42%
CO[C@@H](C)Cn1c(=O)n(C)c2cnc3ccc(-c4cncc(C(C)(C)O)c4)cc3c21 — patients with related adverse event (item: rash; cancer patients; dose not given, monotherapy): 13.5%
C=C1[C@H](CO)[C@@H](O)C[C@@H]1n1cnc2c(=O)[nH]c(N)nc21 — oral bioavailability (rat; 10 mg/kg): 37 to 80%
CN(C)C(=N)N=C(N)N — rate constant k12 (healthy human subjects): 0.0194 min⁻¹
N#C[C@@]1(c2ccc3c(N)ncnn23)O[C@H](CO)[C@@H](O)[C@H]1O — plasma concentration (dog, plasma; intravenous, 2 mg/kg, 0.5 h, solution): 1900 ng/mL
O=C1CC[C@H](N2Cc3cc(N4CCN(CC5CCN(c6ccc([C@@H]7c8ccc(O)cc8CC[C@@H]7c7ccccc7)cc6)CC5)CC4)ccc3C2=O)C(=O)N1 — tolerability (human, ER+/HER2− advanced breast cancer; monotherapy): not toxic
O=C(c1cc(Cc2n[nH]c(=O)c3ccccc23)ccc1F)N1CCN(C(=O)C2CC2)CC1 — AUC(0-t) (human; 300 mg single dose, tablet): 49400 ng·h/mL
CN[C@@H](C)C(=O)N[C@H]1CN(S(=O)(=O)c2cccc(S(=O)(=O)N3CC[C@H]4CC[C@@H](C(=O)NC(c5ccccc5)c5ccccc5)N4C(=O)[C@@H](NC(=O)[C@H](C)NC)C3)c2)CC[C@H]2CC[C@@H](C(=O)NC(c3ccccc3)c3ccccc3)N2C1=O — cumulative faecal excretion unchanged (rat; dose not given, 0-48 h; relative to: dose): 94.1%
c1cc2ccc3ccc4ccc5cccc6c(c1)c2c3c4c56 — logKow (slow stirring): 7.24
O=C(O)CN(CC(=O)O)CC(=O)O — protonation constant (log) (pH-potentiometry, item: logK3H; 0.15 M NaClO4; 25 °C): 1.06
Cn1cnc2c(F)c(Nc3ccc(Br)cc3Cl)c(C(=O)NOCCO)cc21 — AUC, geometric mean (healthy human volunteers, plasma; oral, 25 mg single dose, given alone): 1180 ng·h/mL
CC(C)(CO)c1nc(-c2cccc(NS(=O)(=O)c3c(F)cccc3F)c2F)c(-c2ccnc(N)n2)s1 — metabolite to parent ratio (human; dose not given, dabrafenib monotherapy; relative to: metabolite over dabrafenib): ~90%
Cn1nnc2c(C(N)=O)ncn2c1=O — clinically relevant concentration (human patients): 10 to 20 µmol/L
CC(C)(CO)c1cc2cc(NC(=O)C3(c4ccc5c(c4)OC(F)(F)O5)CC3)c(F)cc2n1C[C@@H](O)CO — fraction unbound (microsomal incubation; CYP3A4 Ki): 0.876
CCCC(C)C(=O)O (stereo not shown) — EC10 (scoliosis or lordosis; zebrafish embryo; nominal concentration): 393 µM
CCC(C)n1ncn(-c2ccc(N3CCN(c4ccc(OCC5COC(Cn6cncn6)(c6ccc(Cl)cc6Cl)O5)cc4)CC3)cc2)c1=O (stereo not shown) — AUC (human, plasma; oral, 100 mg single dose, mean observed): 1890 ng·h/mL
COc1cc2c(Oc3ccc4[nH]c(C)cc4c3F)ccnc2cc1OCC1(N)CC1 — AUC(0-42 days) (human; 12 mg/day, two cycles): 1470 ± 395 ng·h/mL
N#Cc1ccc(-c2cc(=O)c3ccc4[nH]c(C(F)(F)F)nc4c3o2)cc1 — brain/plasma ratio (mouse; dose not given): ~1%
Cc1cn([C@@H]2C[C@@H](O)[C@H](CO)O2)c(=O)[nH]c1=O — oral bioavailability (rat): 60%
COc1ccc2[nH]c([S+]([O-])Cc3ncc(C)c(OC)c3C)nc2c1 (stereo not shown) — AUC (human obese subjects; oral tablet, 20 mg twice daily, day 7): 3740 ng·h/mL
O=C(O)CN(CCN(CC(=O)O)CC(=O)O)CC(=O)O — sum of log KiH (0.15 M NaCl): 21.3
CCCCC1=NC2(CCCC2)C(=O)N1Cc1ccc(-c2ccccc2S(=O)(=O)Nc2noc(C)c2C)c(COCC)c1 — renal excretion (human; relative to: dose): ~2%
Cc1ccc(C)c(OCCCC(C)(C)C(=O)O)c1 — urinary excretion as glucuronide conjugates (urine; concentration not given): ~70%
C[C@@H](Oc1ccc(S(C)(=O)=O)cc1C(=O)N1C[C@@H]2C[C@]2(c2cc(C(F)(F)F)on2)C1)C(F)(F)F — bioavailability (human; oral, 25 mg single tablet, added: meal, high-fat, high-calorie; relative to: fasted state): increased
CCCCC(CC)COC(=O)c1ccc(O)cc1 (stereo not shown) — logD (pH 7.4): 4.02
C=CC(=O)N1CCC([C@@H]2CCNc3c(C(N)=O)c(-c4ccc(Oc5ccccc5)cc4)nn32)CC1 — AUC(0-8h) (human patients; oral, 80 mg once daily, day 1): 513 ± 282 ng·h/mL
C[C@@H](Oc1cc(-c2cnn(C3CCNCC3)c2)cnc1N)c1c(Cl)ccc(F)c1Cl — treatment discontinuation rate (patients; dose not given, monotherapy, prior trial): 5%
Nc1ncnc2c1ncn2[C@@H]1O[C@H](CO)C[C@@H]1F — oral bioavailability (dog): 83%
COc1cc(N2CCC3(CCN(C)CC3)CC2)ccc1Nc1ncc(Cl)c(Nc2ccccc2P(C)(C)=O)n1 — excretion (human, urine; dose not given): 20.2%
CN(C)C(=O)c1cc2cnc(Nc3ccc(N4CCNCC4)cn3)nc2n1C1CCCC1 — adverse event incidence (item: vomiting; advanced solid tumour or lymphoma patients; dose not given, 3 weeks on 1 week off, any grade; relative to: patients): 35.8%
NC(=O)C(CCCCNC(=O)CN1CCN(CC(=O)[O-])CCN(CC(=O)[O-])CCN(CC(=O)[O-])CC1)NC(=O)OCC1c2ccccc2-c2ccccc21.[Gd+3] (stereo not shown) — relaxivity r1 (water; 20 °C, 1.0 T, non-self-assembled): 4.95 mM⁻¹ s⁻¹

Some of these lines once more:
C[C@H](C(=O)NCc1ccccc1)N1C(=O)CCC1=O — TD50 (motor impairment; mouse; intraperitoneal): > 500 mg/kg
C[Si]1(C)O[Si](C)(C)O[Si](C)(C)O[Si](C)(C)O[Si](C)(C)O1 — log KOW (0.13 0.24 µg/L in water, 24.6 °C): 8.07
Cc1cc(-c2nccc3c2ccn3CC(=O)Nc2ccc(-c3cnccn3)cn2)ccn1 — Cmax (item: total drug; rat; dose not given, 1-month toxicology study): 27.9 µM
Cn1ncnc1[C@H]1c2n[nH]c(=O)c3cc(F)cc(c23)N[C@@H]1c1ccc(F)cc1 — Cmax (rat; 0.05 mg/kg once daily, day 28): 19.5 ng/mL
C=CC(=O)NC1CCN(c2ncc3ncnc(Nc4ccc(Oc5ccc6c(c5)ncn6C)c(C)c4)c3n2)CC1 — treatment discontinuation due to TRAEs (human patients; oral, 120 mg once daily): 3%
COC(=O)N[C@H](C(=O)N1CCC[C@H]1c1nc(-c2ccc3c(c2)O[C@@H](c2ccccc2)n2c-3cc3cc(-c4c[nH]c([C@@H]5CCCN5C(=O)[C@@H](NC(=O)OC)C(C)C)n4)ccc32)c[nH]1)C(C)C — fraction of dose recovered in bile (bile duct-cannulated rats; oral, time not given): 8%
N#Cc1ccc([C@H]2CCc3cncn32)c(F)c1 — renal clearance (human): 0.86 L/h
